# Assay results gathered from unrelated publications.
# Each numbered part is a random draw from the data of one study; scales do not carry over between parts.

# Study 1
# Target: Interferon regulatory factor 7, full length, phosphomimetic (IRF7, Homo sapiens, UniProt Q92985, residues 1-503, S101K/S471D/S472D/S475D/S476D/S477D/S483D/S484D/S487D)
# Method: protein-binding microarray
# Form: double-stranded DNA, one strand shown
# Matrix: in vitro
# Tested at: 250 nM
# Setting: 60-bp whole probe
# With: salmon DNA 0.4 mg/ml
# Baseline: random background probes
# Direction: higher = stronger binding
# Constant ends, left off below: GCCTAGCAC … GTCTTGATTCGCTTGACGCTGCTG
# Target sequence (chain): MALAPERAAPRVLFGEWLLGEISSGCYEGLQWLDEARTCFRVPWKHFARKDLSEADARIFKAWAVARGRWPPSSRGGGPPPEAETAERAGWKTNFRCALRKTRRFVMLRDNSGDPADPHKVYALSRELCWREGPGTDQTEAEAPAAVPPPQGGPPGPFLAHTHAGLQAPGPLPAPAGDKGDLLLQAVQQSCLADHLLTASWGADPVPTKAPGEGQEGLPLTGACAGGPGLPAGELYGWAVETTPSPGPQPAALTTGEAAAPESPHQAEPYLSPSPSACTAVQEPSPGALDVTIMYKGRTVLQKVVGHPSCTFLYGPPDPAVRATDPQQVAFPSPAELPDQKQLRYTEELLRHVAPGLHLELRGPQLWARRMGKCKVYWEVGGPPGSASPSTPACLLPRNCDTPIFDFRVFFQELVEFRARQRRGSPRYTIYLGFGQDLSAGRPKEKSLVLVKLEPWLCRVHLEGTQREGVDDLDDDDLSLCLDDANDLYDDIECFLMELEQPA
Sequence,log fluorescence [z-score]
TTAGGACTGGGTATCGGTCAGTGCTAG,-0.00338
CACGGTTTCGGGTATCGGGACGTGCTA,7.78
CCTATCTTATGATATATATAAGTGCTA,0.723
TCAGTCCTCTCTCTATTACTGTGCTAG,0.231
TCATTAATAAGGTTTCCAACTGTGCTA,1.1
TGAAATCTCTTTCCTTACTTGTGCTAG,1.14

# Study 2
# Target: Histone acetyltransferase KAT6A, both winged helices, GST fusion (KAT6A, Homo sapiens, UniProt Q92794, residues 1-181)
# Method: protein binding microarray
# Form: double-stranded DNA, one strand shown
# Matrix: in vitro
# Tested at: not given
# Setting: 8-mer, flanks averaged, mean of 2 arrays, mostly near background
# Baseline: not given
# Direction: higher = stronger binding
# Construct (chain): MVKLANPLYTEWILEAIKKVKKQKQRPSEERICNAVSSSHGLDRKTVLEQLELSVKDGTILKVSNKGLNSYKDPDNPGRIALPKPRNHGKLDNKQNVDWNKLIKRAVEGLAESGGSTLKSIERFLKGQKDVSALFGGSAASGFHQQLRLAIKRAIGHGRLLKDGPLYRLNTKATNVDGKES
Sequence,E-score
ACCGGTCA,0.166
CGCACGCA,0.208
GATATTCC,0.0112
AGCTTAAG,-0.194
ACATGAGC,0.122
AGCAGTGG,-0.115

# Study 3
# Target: Sal-like protein 4, full length isoform A (SALL4, Homo sapiens, UniProt Q9UJQ4, residues 1-1053)
# Sequence of UniProt Q9UJQ4 (whole entry, looked up): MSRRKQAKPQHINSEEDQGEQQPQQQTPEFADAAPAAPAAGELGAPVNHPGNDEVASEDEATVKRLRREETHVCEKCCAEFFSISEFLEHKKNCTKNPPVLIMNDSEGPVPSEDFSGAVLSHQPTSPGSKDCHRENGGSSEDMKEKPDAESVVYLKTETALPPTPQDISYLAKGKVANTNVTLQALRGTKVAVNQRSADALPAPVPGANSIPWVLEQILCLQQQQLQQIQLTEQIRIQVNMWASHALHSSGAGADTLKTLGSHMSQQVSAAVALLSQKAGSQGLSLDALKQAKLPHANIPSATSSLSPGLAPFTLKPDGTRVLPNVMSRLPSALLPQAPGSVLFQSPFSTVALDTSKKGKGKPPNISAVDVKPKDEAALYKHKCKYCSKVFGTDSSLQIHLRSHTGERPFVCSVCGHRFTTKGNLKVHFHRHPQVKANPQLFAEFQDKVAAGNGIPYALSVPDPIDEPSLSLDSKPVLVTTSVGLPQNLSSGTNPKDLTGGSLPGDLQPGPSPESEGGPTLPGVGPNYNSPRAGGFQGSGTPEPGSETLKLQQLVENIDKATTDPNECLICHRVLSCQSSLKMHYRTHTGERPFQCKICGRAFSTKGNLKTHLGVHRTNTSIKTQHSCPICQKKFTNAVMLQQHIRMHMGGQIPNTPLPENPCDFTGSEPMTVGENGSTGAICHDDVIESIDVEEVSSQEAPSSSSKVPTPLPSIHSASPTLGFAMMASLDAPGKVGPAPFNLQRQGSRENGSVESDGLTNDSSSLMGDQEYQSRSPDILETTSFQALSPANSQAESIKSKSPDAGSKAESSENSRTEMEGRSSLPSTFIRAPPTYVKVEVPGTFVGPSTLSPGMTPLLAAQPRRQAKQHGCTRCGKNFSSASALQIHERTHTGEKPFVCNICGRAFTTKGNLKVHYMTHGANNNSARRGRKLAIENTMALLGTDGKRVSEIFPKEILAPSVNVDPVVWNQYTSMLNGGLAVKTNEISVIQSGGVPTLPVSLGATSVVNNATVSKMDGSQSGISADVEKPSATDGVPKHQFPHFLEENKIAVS
# Method: universal PBM
# Form: double-stranded DNA, one strand shown
# Matrix: in vitro
# Tested at: 600 nM
# Setting: 8-mer, flanks averaged, mean of replicates
# Direction: higher = stronger binding
Sequence,E-score
CTCTGGCC,-0.181
CCCGACAC,-0.335
ACCTGTAC,0.0214
GAGCGGCC,-0.422
GTTAACGA,0.101

# Further values, each from its own experiment
Substance,target,assay,test system,conditions,how to read,measurement,value
"PhoQ, residues 284 288 289 292 302 303 SSTLLI","PhoP, residues 12 14 15 18 19 TPWLV (Escherichia coli, UniProt P23836)","Sort-seq, refers to: YFP reporter",E. coli,"PhoQ-PhoP variant library, with: 10 µM Mg2+","baseline: high Mg2+ state, higher = stronger signaling",fold induction,4.52

# For quick reference, copied from above (study 2):
Sequence,E-score
AGCAGTGG,-0.115
